# Results from different studies.
# Each numbered part is a random draw from the data of one study; scales do not carry over between parts.
# UniProt P10721, sequence (whole entry, unmodified, looked up): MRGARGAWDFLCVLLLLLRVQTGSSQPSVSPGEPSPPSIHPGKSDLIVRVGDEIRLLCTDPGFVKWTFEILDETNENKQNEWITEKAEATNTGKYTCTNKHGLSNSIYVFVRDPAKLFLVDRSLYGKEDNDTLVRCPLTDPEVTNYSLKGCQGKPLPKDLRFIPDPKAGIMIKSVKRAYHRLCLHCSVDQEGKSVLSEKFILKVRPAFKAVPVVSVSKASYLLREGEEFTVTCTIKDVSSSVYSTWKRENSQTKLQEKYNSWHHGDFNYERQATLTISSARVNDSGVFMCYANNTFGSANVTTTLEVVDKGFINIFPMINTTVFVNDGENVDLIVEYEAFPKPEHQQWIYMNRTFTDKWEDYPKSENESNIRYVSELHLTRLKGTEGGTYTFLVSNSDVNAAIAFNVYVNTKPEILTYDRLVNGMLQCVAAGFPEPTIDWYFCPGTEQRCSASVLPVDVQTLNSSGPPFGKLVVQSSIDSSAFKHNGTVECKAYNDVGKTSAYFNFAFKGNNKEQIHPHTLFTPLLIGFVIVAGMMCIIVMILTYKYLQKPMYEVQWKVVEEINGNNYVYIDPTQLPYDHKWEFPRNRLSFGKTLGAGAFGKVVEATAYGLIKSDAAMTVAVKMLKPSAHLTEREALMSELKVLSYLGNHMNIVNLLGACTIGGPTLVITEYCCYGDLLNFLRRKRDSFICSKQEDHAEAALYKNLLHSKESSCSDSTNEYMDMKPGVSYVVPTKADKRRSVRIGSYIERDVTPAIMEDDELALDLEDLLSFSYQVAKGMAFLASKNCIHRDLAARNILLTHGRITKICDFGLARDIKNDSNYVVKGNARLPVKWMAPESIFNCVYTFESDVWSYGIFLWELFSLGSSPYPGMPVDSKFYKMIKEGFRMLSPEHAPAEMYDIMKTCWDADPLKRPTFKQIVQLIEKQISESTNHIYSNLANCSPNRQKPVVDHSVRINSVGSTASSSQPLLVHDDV
# UniProt Q16288, sequence (whole entry, looked up): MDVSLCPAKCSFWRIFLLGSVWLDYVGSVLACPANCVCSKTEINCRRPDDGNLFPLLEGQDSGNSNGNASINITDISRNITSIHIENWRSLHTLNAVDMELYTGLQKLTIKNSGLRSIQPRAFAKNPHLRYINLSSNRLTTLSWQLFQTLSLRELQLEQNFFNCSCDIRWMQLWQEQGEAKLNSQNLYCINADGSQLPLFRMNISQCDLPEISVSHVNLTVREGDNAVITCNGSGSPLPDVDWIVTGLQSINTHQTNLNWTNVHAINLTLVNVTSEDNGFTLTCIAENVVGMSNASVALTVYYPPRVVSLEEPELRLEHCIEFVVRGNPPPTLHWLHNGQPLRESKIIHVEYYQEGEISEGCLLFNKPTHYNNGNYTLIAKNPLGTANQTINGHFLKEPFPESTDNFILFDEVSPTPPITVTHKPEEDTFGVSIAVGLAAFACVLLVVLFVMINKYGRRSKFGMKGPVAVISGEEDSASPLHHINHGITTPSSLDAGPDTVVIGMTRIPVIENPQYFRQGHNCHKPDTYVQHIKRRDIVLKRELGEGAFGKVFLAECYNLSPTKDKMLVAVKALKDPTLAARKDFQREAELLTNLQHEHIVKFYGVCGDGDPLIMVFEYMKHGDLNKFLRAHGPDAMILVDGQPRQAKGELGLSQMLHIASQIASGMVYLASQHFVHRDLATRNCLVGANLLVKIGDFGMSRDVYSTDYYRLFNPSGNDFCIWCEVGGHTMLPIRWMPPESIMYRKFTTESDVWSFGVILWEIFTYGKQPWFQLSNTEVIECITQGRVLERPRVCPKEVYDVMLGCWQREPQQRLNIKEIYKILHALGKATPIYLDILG
# UniProt Q9HAZ1, sequence (whole entry, looked up): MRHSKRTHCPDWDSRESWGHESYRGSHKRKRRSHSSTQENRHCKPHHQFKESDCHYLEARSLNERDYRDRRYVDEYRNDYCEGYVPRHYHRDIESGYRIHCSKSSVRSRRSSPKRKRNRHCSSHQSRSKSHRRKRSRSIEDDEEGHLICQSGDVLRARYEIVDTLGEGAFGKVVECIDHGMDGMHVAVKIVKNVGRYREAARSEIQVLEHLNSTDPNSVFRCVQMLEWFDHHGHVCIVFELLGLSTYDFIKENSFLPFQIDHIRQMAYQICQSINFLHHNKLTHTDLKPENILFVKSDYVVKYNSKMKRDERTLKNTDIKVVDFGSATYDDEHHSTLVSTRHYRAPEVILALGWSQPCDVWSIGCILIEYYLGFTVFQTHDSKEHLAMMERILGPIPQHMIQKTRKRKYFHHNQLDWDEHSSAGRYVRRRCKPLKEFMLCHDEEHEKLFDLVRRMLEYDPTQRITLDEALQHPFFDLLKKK
# UniProt P53779, sequence (whole entry, looked up): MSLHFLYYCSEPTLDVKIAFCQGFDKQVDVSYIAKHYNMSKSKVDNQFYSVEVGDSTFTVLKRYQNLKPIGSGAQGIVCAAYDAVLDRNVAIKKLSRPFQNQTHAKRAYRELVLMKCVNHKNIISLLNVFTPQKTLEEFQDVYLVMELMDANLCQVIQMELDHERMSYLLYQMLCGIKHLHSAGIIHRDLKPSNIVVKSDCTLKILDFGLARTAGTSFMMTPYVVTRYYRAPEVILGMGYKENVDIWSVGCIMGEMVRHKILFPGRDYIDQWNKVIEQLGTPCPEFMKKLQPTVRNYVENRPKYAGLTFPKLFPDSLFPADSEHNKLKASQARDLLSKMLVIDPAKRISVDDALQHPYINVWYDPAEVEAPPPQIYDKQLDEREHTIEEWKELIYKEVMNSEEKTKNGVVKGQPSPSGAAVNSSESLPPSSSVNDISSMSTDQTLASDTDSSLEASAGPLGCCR
# UniProt P21802, sequence (whole entry, looked up): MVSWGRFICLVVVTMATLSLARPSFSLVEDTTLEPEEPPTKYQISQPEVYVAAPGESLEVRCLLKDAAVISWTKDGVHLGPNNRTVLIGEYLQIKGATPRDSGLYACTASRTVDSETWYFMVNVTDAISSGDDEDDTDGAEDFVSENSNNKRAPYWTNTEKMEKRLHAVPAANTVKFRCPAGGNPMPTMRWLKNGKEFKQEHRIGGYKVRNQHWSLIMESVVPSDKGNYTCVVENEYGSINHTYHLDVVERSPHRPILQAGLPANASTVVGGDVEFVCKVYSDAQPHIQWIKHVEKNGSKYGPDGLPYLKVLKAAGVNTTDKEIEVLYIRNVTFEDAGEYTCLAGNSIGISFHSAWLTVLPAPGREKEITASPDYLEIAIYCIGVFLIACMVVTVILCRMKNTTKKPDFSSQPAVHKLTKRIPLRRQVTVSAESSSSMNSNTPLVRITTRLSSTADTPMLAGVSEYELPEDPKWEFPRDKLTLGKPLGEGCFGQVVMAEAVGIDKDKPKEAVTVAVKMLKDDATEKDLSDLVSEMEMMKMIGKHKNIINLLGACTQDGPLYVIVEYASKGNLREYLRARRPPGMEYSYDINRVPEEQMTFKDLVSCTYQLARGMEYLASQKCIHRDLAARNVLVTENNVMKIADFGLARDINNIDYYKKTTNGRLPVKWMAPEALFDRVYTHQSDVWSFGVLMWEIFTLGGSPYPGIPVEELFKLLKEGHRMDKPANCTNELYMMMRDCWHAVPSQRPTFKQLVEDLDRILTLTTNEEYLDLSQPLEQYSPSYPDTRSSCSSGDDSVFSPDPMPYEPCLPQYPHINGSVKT

# Study 1 — observed: cell-free assay; method: competition with immobilised ligand; concentration: 1 µM
# SMILES: CC(=O)N1CCC(c2ccc(C(=O)NC(=N)N)cc2C(F)(F)F)CC1
target,remaining binding [%]
"KIT (Homo sapiens, UniProt P10721, D816V)",100
"FGFR2 (Homo sapiens, UniProt P21802)",100
"PRKCD (Homo sapiens, UniProt Q05655)",100
"Tyrosine-protein kinase ABL1, non-phosphorylated (ABL1, Homo sapiens, UniProt P00519, H396P)",60
"DDR1 (Homo sapiens, UniProt Q08345)",83
"MAP4K5 (Homo sapiens, UniProt Q9Y4K4)",100
"FGFR4 (Homo sapiens, UniProt P22455)",100
"STK4 (Homo sapiens, UniProt Q13043)",98
"PIK3CA (Homo sapiens, UniProt P42336, H1047Y)",100
"EPHB1 (Homo sapiens, UniProt P54762)",100
"KIT (Homo sapiens, UniProt P10721)",95
"SGK3 (Homo sapiens, UniProt Q96BR1)",100
"NTRK2 (Homo sapiens, UniProt Q16620)",100
"Ribosomal protein S6 kinase alpha-3, N-terminal kinase domain (RPS6KA3, Homo sapiens, UniProt P51812)",95
"CIT (Homo sapiens, UniProt O14578)",98
"HIPK2 (Homo sapiens, UniProt Q9H2X6)",100
"SRPK2 (Homo sapiens, UniProt P78362)",0
"CLK4 (Homo sapiens, UniProt Q9HAZ1)",100
"MYLK (Homo sapiens, UniProt Q15746)",90
"PKN1 (Homo sapiens, UniProt Q16512)",87
"PIK3CD (Homo sapiens, UniProt O00329)",34

# Study 2 — observed: enzyme activity; mode: inhibitor; concentration: 0.5 µM; reference: control
# Structure (SMILES): Nc1[nH]nc2nnc(-c3c(-c4ccccc4)nn4ccccc34)cc12
target,remaining activity [%]
"DYRK4 (Homo sapiens, UniProt Q9NR20)",95.3
"Aurora kinase A (AURKA, Homo sapiens, UniProt O14965)",101
"ROCK2 (Homo sapiens, UniProt O75116)",89.6
"SLK (Homo sapiens, UniProt Q9H2G2)",94
"DMPK (Homo sapiens, UniProt Q09013)",103
"RET (Homo sapiens, UniProt P07949)",93.7
"PKN2 (Homo sapiens, UniProt Q16513)",98.9
"ROS1 (Homo sapiens, UniProt P08922)",80.2
"MAPK10 (Homo sapiens, UniProt P53779)",103
"Cyclin-dependent kinase 2, with cyclin A (CDK2, Homo sapiens, UniProt P24941)",92.9
"BRSK1 (Homo sapiens, UniProt Q8TDC3)",98.6
"MAP3K2 (Homo sapiens, UniProt Q9Y2U5)",97.8
"MAP3K8 (Homo sapiens, UniProt P41279)",95
"PTK2B (Homo sapiens, UniProt Q14289)",95.4
"NTRK3 (Homo sapiens, UniProt Q16288)",76.6
"EGFR (Homo sapiens, UniProt P00533)",83.9
"CAMK1G (Homo sapiens, UniProt Q96NX5)",99.2
"GRK5 (Homo sapiens, UniProt P34947)",106
"PRKD1 (Homo sapiens, UniProt Q15139)",68.4
"CSNK2A2 (Homo sapiens, UniProt P19784)",93.4
"CDK7 (Homo sapiens, UniProt P50613)",99
"HIPK3 (Homo sapiens, UniProt Q9H422)",95.3

# Study 3 — method: LC-MS/MS; measured: S-adenosylmethionine; species: human patients; medium: plasma
# Compound: COc1ccc(-c2c(Nc3ccccn3)[nH]c3c(C4=CCCCC4)c(-c4ccccc4)nn3c2=O)cc1
conditions,plasma SAM concentration
"50 mg QD, 1 h, geometric mean",23.6 ng/mL
"100 mg QD, 2 h, mean",19 ng/mL
"400 mg QD, 4 h, mean",20.8 ng/mL
"200 mg BID, 6 h, mean",11.6 ng/mL
"100 mg QD, 2 h, median",13.7 ng/mL
"50 mg QD, 1 h, mean",24.9 ng/mL
"200 mg BID, 1 h, median",12.3 ng/mL
"200 mg BID, 6 h, geometric mean",11.2 ng/mL
"200 mg BID, 1 h, mean",11 ng/mL

# Single results of other studies
Compound,target,assay,conditions,endpoint,value
CN1CCN(C(=O)c2ccc(NC(=O)Nc3ccc(N(C)c4ccnc(Nc5ccc(CS(C)(=O)=O)cc5)n4)cc3)cc2)CC1,"Focal adhesion kinase 1 (PTK2, Homo sapiens, UniProt Q05397)",cell-free assay,1 µM,remaining signal,36%

# Repeated from above (study 1):
target,remaining binding [%]
"KIT (Homo sapiens, UniProt P10721, D816V)",100
"FGFR2 (Homo sapiens, UniProt P21802)",100
"PRKCD (Homo sapiens, UniProt Q05655)",100
"Tyrosine-protein kinase ABL1, non-phosphorylated (ABL1, Homo sapiens, UniProt P00519, H396P)",60
"DDR1 (Homo sapiens, UniProt Q08345)",83
"MAP4K5 (Homo sapiens, UniProt Q9Y4K4)",100
"FGFR4 (Homo sapiens, UniProt P22455)",100
"STK4 (Homo sapiens, UniProt Q13043)",98
